Measured values collected from several papers.
± marks the error that the study gave.

Compound | cell line | test | test system | setting | scale | measurement | result
Clc1cccc(Nc2nc(NCc3ccccc3)c3ccccc3n2)c1 | SW-403 | cell growth or viability | – | 24 h | – | GI50 | 5.4 µM
Cn1c2cc([S+](C)[O-])sc2c2cnn(Cc3cccc(N)c3)c(=O)c21 (stereo not shown) | H1299 | LC-MS/MS | – | 25 µM, 36 h | – | intracellular serine | decreased
COc1cc(/C=C/C(=O)NCCCCCCNC2=C3C[C@@H](C)C[C@H](OC)[C@H](O)[C@@H](C)/C=C(\C)[C@H](OC(N)=O)[C@@H](OC)/C=C\C=C(/C)C(=O)NC(=CC2=O)C3=O)ccc1O | MDA-MB-231 cells | Hsp90 inhibitor, Western blot, refers to: Her2, Akt, CDK4 | – | concentration not given | – | client protein levels | decreased
COc1cc(CNC(=O)C[C@H](C)CCC=C(C)C)ccc1OCc1cn(-c2cccc(C(F)(F)F)c2)nn1 | OVCAR-5 ovarian cancer cells | SRB | – | 10 µM, 48 h | – | growth percent | 97.5%
Cc1noc(NS(=O)(=O)c2ccc(NC(=O)c3ccnc(-c4cccc(Br)c4)c3)cc2)c1C | mouse spleen cells | cell proliferation, MTT | – | 1 µM, 72 h, together with: concanavalin A 5 µg/mL | – | inhibition | 15.3 ± 7.81%
C=C(CC)C(=O)c1ccc(OCC(=O)NCCNC(=O)COc2ccc(C(=O)C(=C)CC)c(Cl)c2Cl)c(Cl)c1Cl | CoC1 | cell growth, CCK-8 | – | 1.0 µM, together with: cisplatin | – | sensitisation to cisplatin | ~2 fold
CCCCC(CC)CNC(=N)NC(=N)NCCCCCCCCNC(=N)NC(=N)NCC(CC)CCCC (stereo not shown) | NCI-H1299 | TMRM flow cytometry | – | 1 µM, 48 h, together with: oligomycin 1 µM | – | cells unable to hyperpolarize | 5.25%
COc1cc(CNC(=O)C[C@H](C)CCC=C(C)C)ccc1OCc1cn(-c2ccc(F)cc2)nn1 | BT-549 breast cancer cells | SRB | – | 10 µM, 48 h | – | growth percent | 79.7%
O=C(N/N=C/c1ccccn1)c1cc(-c2ccc(Cl)cc2)nc2ccccc12 | LDR | silenced GFP reporter derepression, microscopy | – | overnight | baseline: sodium butyrate | Emax | 61%
COc1cc(CNC(=O)C[C@H](C)CCC=C(C)C)ccc1OCc1cn(-c2ccccc2F)nn1 | BT-549 breast cancer cells | SRB | – | 10 µM, 48 h | – | growth percent | 71%
CCCCCCCCCCCCCC(=O)N1CCC[C@H]1C(=O)N[C@@H](CO)C(=O)N[C@@H](CCC(N)=O)C(=O)N[C@@H](CO)C(=O)N[C@@H](CCCCNC(=O)c1ccc(Br)cc1)C(=O)N[C@@H](CO)C(=O)N[C@@H](CCCCNC(=O)c1ccc(Br)cc1)C(=O)N[C@@H](C)C(=O)O | AsPC-1 | annexin V/PI | – | 200 µM, 48 h | – | apoptotic cells | 65%
CC1=CCC23OC2(C)CCC2C(CN(C)C)C(=O)OC2C13.Cl (stereo not shown) | C6 rat glioma cells | – | – | 2 mg/mL, clonogenic | baseline: control | proliferation reduction | 3 fold
COc1cc(CNC(=O)C[C@H](C)CCC=C(C)C)ccc1OCc1cn(-c2ccccc2)nn1 | M14 melanoma cells | SRB | – | 10 µM, 48 h | – | growth percent | 85.7%
CC/C=C\C/C=C\C/C=C\C/C=C\C/C=C\C/C=C\CCC(=O)Nc1ccn(C2OC(CO)C(O)C2(F)F)c(=O)n1 (stereo not shown) | SF-268 | NCI60 screen | – | – | – | TGI | 12.9 µM
C(=C/c1ccccc1)/c1ccccc1 | Jurkat | cell proliferation, ATP luminescence | – | 24 h | baseline: vehicle | lowest effective concentration | 2 µM
CCCC(CCC)C(=O)[O][Pt]([NH2])([NH2])([Cl])([Cl])[O]C(=O)c1ccccc1OC(C)=O | HEK293 and PSN1 | cytotoxicity, MTT | – | – | baseline: IC50 HEK293 over IC50 PSN1 | selectivity index | 4.5
CC(C)=CCC1=C([O-])C(=O)c2ccccc2C1=O.CC(C)=CCC1=C([O-])C(=O)c2ccccc2C1=O.Cc1cc2cccnc2c2ncccc12.O.[Cu+2] | A2780 | ICP-MS | – | concentration not given, 24 h | baseline: untreated | intracellular copper | ~4 fold
Cc1ncsc1-c1ccc(C(CO)NC(=O)C2CC(O)CN2C(=O)C(C(C)C)n2cc(-c3ccc(COc4c(-c5c(C)c(F)cc6[nH]ncc56)c(C5CC5)cc5c(N6CC7CC6CN7)nc(OC6CCOCC6)nc45)cc3)nn2)cc1 (stereo not shown) | AsPC-1 | immunoblot, refers to: p-ERK, p-AKT, p-S6 | – | concentration not given, 24 h | – | phosphoprotein level | decreased
Cc1noc(NS(=O)(=O)c2ccc(NC(=O)c3cc(-c4cccc(Cl)c4)nc4ccccc34)cc2)c1C | mouse spleen cells | cell proliferation, MTT | – | 1 µM, 72 h, together with: concanavalin A 5 µg/mL | – | inhibition | 14.1 ± 9.97%
O=C1c2ccc(O)cc2OC1(O)Cc1ccc(O)c(O)c1 (stereo not shown) | HaCaT over HL-60 | cytotoxicity, MTT | – | 72 h | baseline: IC50 HaCaT over IC50 HL-60 | selectivity ratio | > 9.41
Cc1ccc(C(C)C)cc1.[Cl-].[Cl][Ru+].[Ru+].c1ccc(-c2cn(CCCCOc3ccccc3-c3nc4ccccc4s3)nn2)nc1 | MCF7 | annexin V/PI flow cytometry | – | 4 µM, 24 h | – | late apoptotic cells | 5.9%
CCOP(=O)(CC(=O)Nc1ccc(S(=O)(=O)N(CC(N)=O)c2ccc(N(CC(N)=O)S(=O)(=O)c3ccc(OC)cc3)c3ccccc23)cc1)OCC | mouse primary cortical neurons | western blot, refers to: NDP52 | – | 20 µM, together with: amyloid beta | – | protein expression | increased
CCC12CCc3c(c4ccccc4n3C)CCN(CC3OC31)C2 (stereo not shown) | BV-2 | NO production | – | 6 µM, 1 h, 24 h stimulation, together with: LPS 800 ng/mL | baseline: LPS control | inhibition | 52.1 ± 0.1%
C1=[N+]2CCCC[N+]3=Cc4ccc5[n]4[Au-]23[n]2c1ccc2-c1nc2ccccc2nc1-5.F[P-](F)(F)(F)(F)F | NCI60 non-small cell lung lines | – | – | – | – | GI50 | 6 µM
O=C(O)c1ccc(/C=C2\SC(=S)N(Cc3cccc(C(F)(F)F)c3)C2=O)cc1 | LPS-primed human PBMC | – | – | concentration not given, together with: nigericin | – | TNF-α production | no effect
Cc1ccc(C(C)C)cc1.O=C(N=P(c1ccccc1)(c1ccccc1)c1ccccc1)c1ccccn1.[Cl-].[Cl][Ru+] | HCC1806 | cell growth or viability, resazurin | – | – | – | IC20 | 2.5 µM

Compound | cell line | test | test system | setting | scale | measurement | result
N#Cc1cc(C(=O)OCC[18F])c(C(F)(F)F)nc1N1CCN(C(=O)Cc2ccccc2)CC1 | C6 P2Y12-positive | – | – | together with: excess clopidogrel | baseline: unblocked | cellular uptake | decreased
Cc1c2ccnc(C(=O)N[C@H](C)CN(C)C)c2cc2c3cc(OCCCN4CCN(C)CC4)ccc3n(C)c12 | C9orf72 ALS iPSCs | qRT-PCR | – | 0.05 µM, together with: control siRNA | baseline: vehicle | C9orf72 intron reduction | 42 ± 5%
COc1ccc(CC2COC(=O)C2Cc2ccc3c(c2)OCO3)cc1OC (mixture of isomers) | A2780 | western blot, refers to: CDK1 | – | 8.75 µM, 72 h | – | protein level | decreased
COc1cc(CNC(=O)C[C@H](C)CCC=C(C)C)ccc1OCc1cn(-c2ccc(Cl)cc2Cl)nn1 | OVCAR-5 ovarian cancer cells | SRB | – | 10 µM, 48 h | – | growth percent | 91.7%
CCC(=O)N(C)c1ccc(Cl)c(Cl)c1 | DBA/1 mouse splenocytes | – | – | 50, 100, 200 µM, 48 h, together with: anti-CD3/CD28 | – | live CD3+ T cells | no effect
Cc1cc(CNCCCCCC(=O)NO)ccc1OCc1cccc(-c2ccccc2)c1C | mouse M1 macrophages | refers to: Socs3 | – | concentration not given | – | mRNA level | decreased
CCCCN1C(=O)c2cccc3c(NCCCCCCCCN4CCOCC4)ccc(c23)C1=O | BHK-21 | lysosome colocalization, confocal microscopy | – | 0.2 µM, together with: LysoTracker Deep Red 0.3 µM | – | Pearson correlation coefficient | 0.88 ± 0.02
COc1ccc([C@@H]2CC(=O)c3c(O)cc(O[C@@H]4O[C@H](CO[C@@H]5O[C@@H](C)[C@H](O)[C@@H](O)[C@H]5O)[C@@H](O[C@H]5O[C@H](CO)[C@@H](O)[C@H](O)[C@H]5O)[C@H](O)[C@H]4O)cc3O2)cc1O | MRC5 | trypan blue exclusion | – | 100 µg/mL, 24 h | – | cell count | 8330 ± 523
COc1cc(CNC(=O)C[C@H](C)CCC=C(C)C)ccc1OCc1cn(-c2ccccc2Cl)nn1 | OVCAR-5 ovarian cancer cells | SRB | – | 10 µM, 48 h | – | growth percent | 93.1%
C#CCN(CC(=O)O[C@H]1[C@H](C)O[C@@H](O[C@H]2[C@H](N(C)C)[C@@H](O)[C@H](O[C@H]3[C@@H](CC=O)C[C@@H](C)[C@@H](O[C@H]4CC[C@H](N(C)C)[C@@H](C)O4)/C=C/C=C/C[C@@H](C)OC(=O)C[C@@H](O)[C@@H]3OC)O[C@@H]2C)C[C@@]1(C)O)C(=O)c1ccc(C(F)(F)F)cc1 | HGC-27 | Western blot | – | 0.10, 0.45, 0.90 µM, 24 h | – | phospho-ERK1/2 level | increased
COc1cc(CNC(=O)C[C@H](C)CCC=C(C)C)ccc1OCc1cn(-c2ccc(C#N)cc2)nn1 | BT-549 breast cancer cells | SRB | – | 10 µM, 48 h | – | growth percent | 58.5%
CN1CCN(c2ccc(Nc3ncc(Cl)c(Nc4ccccc4NS(=O)(=O)C4CC4)n3)cc2)CC1 | Ba/F3 EGFR C797S | western blot | – | concentration not given, 12 h | – | EGFR pathway phosphoprotein levels | decreased
O=Cc1c(O)ccc2ccccc12 | HUVEC | RNA sequencing, refers to: RARB | – | 75 µM, 24 h | baseline: DMSO | log2 fold change | -2.93
COc1ccc(NC(=O)CSc2nc3c(oc4ccccc43)c(=O)n2Cc2ccco2)cc1Cl | LDR | silenced GFP reporter derepression, microscopy | – | overnight | baseline: sodium butyrate | Emax | 37%
CCN(CC)CC(=O)Nc1cccc(-n2cc(-c3ccc4ccc(-c5cn(-c6cccc(NC(=O)CN(CC)CC)c6)nn5)cc4c3)nn2)c1 | RCC4 | qRT-PCR, refers to: HIF-1α | – | 5 x IC50, 4 h | baseline: untreated | mRNA level | 4%
CC(=O)OC[C@H]1O[C@@H](Sc2sc(C(=O)c3ccc(Br)cc3)c(N)c2-c2nc3ccccc3s2)[C@H](OC(C)=O)[C@@H](OC(C)=O)[C@H]1OC(C)=O | SF-268 | SRB | – | 10 µM, 48 h | baseline: untreated | growth | 93%
Cc1ccc(C(C)C)c(OCc2ccc(C(=O)N/N=C/c3cccc(O)c3O)cc2)c1 | HCC4017 | ChIP, refers to: ANGPTL4 promoter H3K4me3 | – | 1.3 µM, 24 h | – | H3K4me3 level | increased
CC(C)c1cccc(C(C)C)c1-n1ccn(-c2c(C(C)C)cccc2C(C)C)c1=[Se].[Cl][Ag] | LoVo-OXP colon cancer cells | MTT | – | – | baseline: LoVo-OXP over LoVo IC50 | resistance factor | 1.2
CCC(=C(c1ccc(Cl)cc1)c1ccc(OCCCN(C)C)cc1)c1ccc(OC)cc1 | SNB-19 | cell growth or viability, SRB | – | – | – | GI50 | 1.88 µM
N[C@@H](CCC(=O)N[C@@H](CS[Se]Cc1ccc(-c2cc(C(F)(F)F)nn2-c2ccc(S(N)(=O)=O)cc2)cc1)C(=O)NCC(=O)O)C(=O)O | melanoma cells | BrdU ELISA | – | 15.5 µM, 24 h | – | decrease in cell proliferation | ~80%
CC(C)(C)n1cc(CN(Cc2cn(CC(=O)O)nn2)Cc2cn(C(C)(C)C)nn2)nn1 | OVCAR-5 HPG-labelled | CuAAC reaction on cells, LC-ESI-MS/MS | cytosolic proteins | together with: BSO 20 µM for 24 h pretreatment | – | yield | 0.8%
COc1cc(CNC(=O)C[C@H](C)CCC=C(C)C)ccc1OCc1cn(-c2cccc([N+](=O)[O-])c2)nn1 | M14 melanoma cells | SRB | – | 10 µM, 48 h | – | growth percent | 82.5%
Oc1ccccc1-c1nn(-c2ccccn2)[n+](-c2ccccc2)n1.[Br-] | A2780 | labile iron pool, calcein-AM | – | 40 µM, 24 h | – | calcein fluorescence increase | ~68%
O=C(CSc1cccc[n+]1[O-])c1ccccc1Br | LDR | silenced GFP reporter derepression, microscopy | – | overnight | baseline: sodium butyrate | Emax | 127%
Cc1nn(-c2ccc(S(=O)(=O)N[C@H](CO)CC(C)C)cc2)c2nn3nnnc3nc12 | HT-29 | PI/Hoechst staining | – | 1 µM, 24 h | – | apoptotic cells | 25.5 ± 2.12%
COC(=O)C1C(C=NNCC(F)(F)F)=Cc2cc3c(cc2C1c1cc(OC)c(OC)c(OC)c1)OCO3 (stereo not shown) | uninfected mouse splenocytes | – | – | – | baseline: splenocyte CC50 over amastigote EC50 | selectivity index | > 4.1

Repeated from above:
Compound | cell line | test | test system | setting | scale | measurement | result
C#CCN(CC(=O)O[C@H]1[C@H](C)O[C@@H](O[C@H]2[C@H](N(C)C)[C@@H](O)[C@H](O[C@H]3[C@@H](CC=O)C[C@@H](C)[C@@H](O[C@H]4CC[C@H](N(C)C)[C@@H](C)O4)/C=C/C=C/C[C@@H](C)OC(=O)C[C@@H](O)[C@@H]3OC)O[C@@H]2C)C[C@@]1(C)O)C(=O)c1ccc(C(F)(F)F)cc1 | HGC-27 | Western blot | – | 0.10, 0.45, 0.90 µM, 24 h | – | phospho-ERK1/2 level | increased
COc1cc(CNC(=O)C[C@H](C)CCC=C(C)C)ccc1OCc1cn(-c2ccc(C#N)cc2)nn1 | BT-549 breast cancer cells | SRB | – | 10 µM, 48 h | – | growth percent | 58.5%
CN1CCN(c2ccc(Nc3ncc(Cl)c(Nc4ccccc4NS(=O)(=O)C4CC4)n3)cc2)CC1 | Ba/F3 EGFR C797S | western blot | – | concentration not given, 12 h | – | EGFR pathway phosphoprotein levels | decreased
O=Cc1c(O)ccc2ccccc12 | HUVEC | RNA sequencing, refers to: RARB | – | 75 µM, 24 h | baseline: DMSO | log2 fold change | -2.93
